# Measurements from different studies.
# Numbered parts are unrelated; each lists some results of a single study. Changes are numbered by the printed parent chain.

# Sample 1
# Target: RNA binding protein fox-1 homolog 2, RRM domain, GST-SBP tag (RBFOX2, Homo sapiens, UniProt O43251-10, residues 100-194)
# Technique: RNA Bind-n-Seq
# Form: RNA
# Matrix: in vitro
# Tested at: 365 nM
# Notes: natural RNA segment, single round, ends assumed
# Relative to: no-protein control
# Direction: higher = stronger binding
# All sequences stand within: GGGAGUUCUACAGUCCGACGAUC … UGGAAUUCUCGGGUGCCAA
# Target sequence (chain): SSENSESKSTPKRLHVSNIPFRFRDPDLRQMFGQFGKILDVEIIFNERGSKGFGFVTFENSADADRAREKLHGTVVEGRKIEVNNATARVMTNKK
Oligonucleotide,RBNS enrichment (R)
GUGGACGCUCACUAAGACCGAAACUGGAGAAGGGCUGGGCCUGGACCUAACAUUGGGGACUUAAAUGCCUUCUUAUCCAAUAUAUCUUCUCAGAUGGGAUGACUGCGGGU,0.248
UUUCCCUCUGUAUACAAGGAUCAGAUUCUUGCUGUGACCCAAGAACUCCUGAAAUCAUAUAGAAAGGCUGGGGUGGGCCCUGUCAUUCGUGGUUGAUUUCAAUACACUCA,0.439
UUUUCCUCUAGCAAGCCAGCUGUGCUGAAGCCCAGUAGAGAUGAAGAGACACCAGCCAGAGAAAACCCCCUCUAGAAGGAAUGUAUUUGUUGCUAAAUUUUGUAGCACUG,0.515
AGUAACCUCAAAUUCCUGUUCUUGGUUCUUAUUUAAGCAUGGGUCUUCAUUCAACUCAGAAGGCCUGAUCUGUGUAUAUUCUGGUGUGUAUUGUAUGGUAGCUCUUUGAG,1.01
UGAAAUAUGUUUGAGUAAAAAAGAGUUGCCUGCCACAAUUUAGUGUUGGGGUUCCAGUGGAGCUGAGAAAGUGAACAAUCCAGCUACUUAAAGCAACAACAAAACCUGUU,0.351
UCCUUGCUAAAAAGGGUUCCAUCUCCUUUAAGGACGUUUUAUUUUUGAUCCAGAGUCCUUGUUUCCUUGACUUGCUCCACCAGCCCUGCACCAGCUUUCCAAAUGCACUC,3.12
CUUGUCCCUCUCACUCCCCAGCCCCACCCCUAAGUGCCCAAAGUGGGGAGGGACAAGGGAUUCUGGGAAGCUUGAGCCUCCCCCAAAGCAAUGUGAGUCCCAGAGCCCGC,0.401
UUACACCUGUUUACAAUUUGGGGACAAAAAGGCAGGCUUCAUUUUUCAUAUGUUUGAUGAAAACUGGCUCAAGAUGUUUGUAAAUAGAAUCAAGAGCAAAACUGCACAAA,0.823

# Sample 2
# Target: Interferon regulatory factor 7, full length, phosphomimetic (IRF7, Homo sapiens, UniProt Q92985, residues 1-503, S471D/S472D/S475D/S476D/S477D/S483D/S484D/S487D)
# Technique: protein-binding microarray
# Form: double-stranded DNA, one strand shown
# Matrix: in vitro
# Tested at: 2200 nM top
# Notes: 60-bp whole probe
# With: salmon DNA 0.4 mg/ml
# Relative to: random background probes
# Direction: higher = stronger binding
# All sequences stand within: GCCTAGCAC … GTCTTGATTCGCTTGACGCTGCTG
# Construct (chain): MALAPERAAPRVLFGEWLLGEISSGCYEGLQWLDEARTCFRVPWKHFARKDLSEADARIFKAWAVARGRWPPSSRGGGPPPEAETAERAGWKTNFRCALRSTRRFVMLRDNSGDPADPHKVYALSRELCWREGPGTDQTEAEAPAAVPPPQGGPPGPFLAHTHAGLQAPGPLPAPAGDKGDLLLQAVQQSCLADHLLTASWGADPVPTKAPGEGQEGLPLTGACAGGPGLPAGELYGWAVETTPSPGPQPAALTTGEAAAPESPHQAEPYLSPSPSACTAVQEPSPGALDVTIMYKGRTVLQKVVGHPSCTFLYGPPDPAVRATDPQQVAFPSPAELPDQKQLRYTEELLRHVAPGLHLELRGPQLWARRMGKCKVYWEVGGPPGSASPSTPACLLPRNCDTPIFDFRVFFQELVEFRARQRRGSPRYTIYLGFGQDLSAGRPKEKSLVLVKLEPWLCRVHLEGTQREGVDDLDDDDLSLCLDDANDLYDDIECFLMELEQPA
Oligonucleotide,fitted relative affinity [z-score]
ATAGATTCCAGTTTCGATTAGTGCTAG,6.82
TTAGGTGTCGGGTATCGGTTAGTGCTA,0.323
TTAGGTATCCTTTTCCTTTCGTGCTAG,3.12
TTAGGTTTCGGACTGTGTTAGTGCTAG,3.65
TTCGGTTTCGGGTTTCGGTTAGTGCTA,12.3
GACGGTATCATTTTCCTGACGTGCTAG,1.46
TTAAGTTTCGGGACTGGGTTAGTGCTA,4.21

# Sample 3
# Target: CCNA1, cyclin fold, Cln2 fusion (human)
# Technique: yeast growth competition, sequencing
# Matrix: yeast
# Notes: weak parent motif
# Relative to: not given
# Direction: higher = stronger binding
# Starting sequence: CDC25A docking peptide (human); PPHRRRLLFACSP; partner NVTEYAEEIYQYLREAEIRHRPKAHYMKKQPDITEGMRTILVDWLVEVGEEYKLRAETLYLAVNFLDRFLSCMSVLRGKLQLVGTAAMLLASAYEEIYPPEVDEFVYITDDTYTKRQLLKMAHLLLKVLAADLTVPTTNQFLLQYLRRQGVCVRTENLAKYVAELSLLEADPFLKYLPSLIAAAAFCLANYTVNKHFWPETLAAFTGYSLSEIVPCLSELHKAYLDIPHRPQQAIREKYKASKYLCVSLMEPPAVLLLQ
Substitution,normalised enrichment score
R5A,0.438
F9I,0.34
F9W,0.232

# Further values, each from its own experiment
Substance,target,test,test system,conditions,scale,quantity,result
"PhoQ, residues 284 288 289 292 302 303 SSLVEF","PhoP, residues 12 14 15 18 19 IFFTR (Escherichia coli, UniProt P23836)","Sort-seq, measured: YFP reporter",E. coli,"PhoQ-PhoP variant library, with: 10 µM Mg2+","relative to: high Mg2+ state, higher = stronger signaling",fold induction,8.97
